Assay results from different studies.
Several values in a cell are separate wells, animals, samples, runs or records. ± gives the spread as reported. In brackets after ≈: the same amount, converted by molar mass.
cyp121: Mycocyclosin synthase (cyp121, Mycobacterium tuberculosis, UniProt P9WPP7)

Protein sequences, listed by entry. Tags and fused reporters are not part of them. Residues count along the entry.
UniProt P9WPP7, whole entry: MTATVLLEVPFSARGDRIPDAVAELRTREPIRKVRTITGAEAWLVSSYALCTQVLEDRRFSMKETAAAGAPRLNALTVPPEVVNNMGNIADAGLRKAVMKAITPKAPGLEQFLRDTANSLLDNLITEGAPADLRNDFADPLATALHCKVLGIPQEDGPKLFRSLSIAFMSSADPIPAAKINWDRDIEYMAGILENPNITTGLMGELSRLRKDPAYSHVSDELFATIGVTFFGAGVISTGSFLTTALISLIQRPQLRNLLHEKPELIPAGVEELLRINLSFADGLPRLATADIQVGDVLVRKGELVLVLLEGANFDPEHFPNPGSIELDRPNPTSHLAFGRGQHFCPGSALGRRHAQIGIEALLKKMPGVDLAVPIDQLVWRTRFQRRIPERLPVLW
UniProt P41738, 10-853 limits assumed: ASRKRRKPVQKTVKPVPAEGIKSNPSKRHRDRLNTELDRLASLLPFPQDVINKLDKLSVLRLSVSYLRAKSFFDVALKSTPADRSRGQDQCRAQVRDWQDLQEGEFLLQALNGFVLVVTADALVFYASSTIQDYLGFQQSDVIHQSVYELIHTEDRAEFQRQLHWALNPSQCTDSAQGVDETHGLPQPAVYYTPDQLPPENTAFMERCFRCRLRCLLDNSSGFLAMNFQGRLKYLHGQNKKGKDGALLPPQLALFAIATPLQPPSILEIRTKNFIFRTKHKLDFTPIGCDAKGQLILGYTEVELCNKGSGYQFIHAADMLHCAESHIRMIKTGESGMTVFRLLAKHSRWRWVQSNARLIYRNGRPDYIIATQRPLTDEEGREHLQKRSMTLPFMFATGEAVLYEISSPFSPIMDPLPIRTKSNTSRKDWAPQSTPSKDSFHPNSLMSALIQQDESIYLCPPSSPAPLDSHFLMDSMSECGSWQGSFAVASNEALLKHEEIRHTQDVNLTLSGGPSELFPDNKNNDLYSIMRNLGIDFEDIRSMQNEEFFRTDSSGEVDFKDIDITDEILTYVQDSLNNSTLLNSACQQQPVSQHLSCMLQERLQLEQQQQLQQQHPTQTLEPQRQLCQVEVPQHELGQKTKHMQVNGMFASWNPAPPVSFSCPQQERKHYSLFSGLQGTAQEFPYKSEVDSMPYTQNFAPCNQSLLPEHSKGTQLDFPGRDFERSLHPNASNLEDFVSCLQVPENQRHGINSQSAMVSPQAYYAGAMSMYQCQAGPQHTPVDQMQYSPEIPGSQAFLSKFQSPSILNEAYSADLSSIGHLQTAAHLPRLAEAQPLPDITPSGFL
UniProt P35353, 24-415 limits assumed: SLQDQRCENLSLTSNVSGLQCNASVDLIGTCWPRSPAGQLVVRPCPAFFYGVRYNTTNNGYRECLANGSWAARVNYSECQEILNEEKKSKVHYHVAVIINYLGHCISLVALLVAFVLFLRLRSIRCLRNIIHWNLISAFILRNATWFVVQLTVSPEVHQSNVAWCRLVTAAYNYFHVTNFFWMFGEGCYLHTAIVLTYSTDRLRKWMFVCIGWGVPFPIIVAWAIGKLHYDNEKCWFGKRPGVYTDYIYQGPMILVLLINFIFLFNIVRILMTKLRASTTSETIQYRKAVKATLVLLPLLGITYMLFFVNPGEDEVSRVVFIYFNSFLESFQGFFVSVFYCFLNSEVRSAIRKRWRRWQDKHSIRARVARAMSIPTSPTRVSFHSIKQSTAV
UniProt P10635, whole entry: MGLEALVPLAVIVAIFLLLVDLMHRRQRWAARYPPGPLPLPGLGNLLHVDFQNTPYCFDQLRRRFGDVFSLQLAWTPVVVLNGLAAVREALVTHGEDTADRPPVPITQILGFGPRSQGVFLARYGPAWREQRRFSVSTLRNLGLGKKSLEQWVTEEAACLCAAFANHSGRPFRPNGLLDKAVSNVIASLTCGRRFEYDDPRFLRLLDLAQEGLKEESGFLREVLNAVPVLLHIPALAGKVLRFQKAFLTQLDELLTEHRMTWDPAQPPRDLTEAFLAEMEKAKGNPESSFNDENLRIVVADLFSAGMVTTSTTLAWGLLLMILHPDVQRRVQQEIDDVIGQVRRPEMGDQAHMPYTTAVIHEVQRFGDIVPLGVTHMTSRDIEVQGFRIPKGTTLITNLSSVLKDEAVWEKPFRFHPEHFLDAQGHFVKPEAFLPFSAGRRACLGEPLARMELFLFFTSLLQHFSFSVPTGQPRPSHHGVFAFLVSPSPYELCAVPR
UniProt P05177, whole entry: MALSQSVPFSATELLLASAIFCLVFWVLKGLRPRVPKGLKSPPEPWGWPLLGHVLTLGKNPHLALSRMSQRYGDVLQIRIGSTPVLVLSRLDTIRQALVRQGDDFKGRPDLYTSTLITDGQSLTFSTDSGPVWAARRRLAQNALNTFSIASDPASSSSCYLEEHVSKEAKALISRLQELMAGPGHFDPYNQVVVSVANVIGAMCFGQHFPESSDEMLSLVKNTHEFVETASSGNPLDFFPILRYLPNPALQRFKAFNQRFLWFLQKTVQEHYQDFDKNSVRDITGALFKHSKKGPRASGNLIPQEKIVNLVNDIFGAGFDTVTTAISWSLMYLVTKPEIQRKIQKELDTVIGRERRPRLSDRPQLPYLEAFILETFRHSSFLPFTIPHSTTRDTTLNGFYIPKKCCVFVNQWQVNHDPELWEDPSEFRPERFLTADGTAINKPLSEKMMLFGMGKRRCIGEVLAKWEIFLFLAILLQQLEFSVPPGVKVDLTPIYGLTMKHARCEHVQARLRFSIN

For `NC[C@@H](NC[C@@H]1CCCN1C[C@@H](CO)NC[C@@H](NCCc1ccc(Cl)c(Cl)c1)c1ccccc1)c1ccccc1`, the IC50 was greater than 24 µM (Klebsiella pneumoniae; bacterial growth; compound alone).
With `CNCCNC(=O)c1cc2c([nH]c3c(C)cccc32)c(-c2ccc(Cl)c(Cl)c2)n1` the kinetic solubility was 103 µM (≈ 44 µg/mL) (pH 7.4).
`O=C(NC1CCN(c2ncnc3[nH]cnc23)CC1)c1cccc(NS(=O)(=O)c2ccc([N+](=O)[O-])cc2)c1` gave a viability of 89.9% (A549-ACE2; 200 µM).
With `O=c1c(-c2c[nH]c3ccccc23)nccc2c1[nH]c1ccccc12` the EC50 was 0.0045 µM (Ahr (Rattus norvegicus, UniProt P41738); reporter gene, activator; rat H4L7.5c2; 6 h).
`Cc1ccccc1S(=O)(=O)Nc1cccc(C(=O)NC2CCN(c3ncnc4[nH]cnc34)CC2)c1` gave a viability of 105% (A549-ACE2; 0.823 µM).
The half-life of `COc1cccc2c(N3CCC(CCP(=O)(O)O)CC3)ncnc12` is reported as 10 to 15 min (mouse, serum; intravenous and subcutaneous, 10 mg/kg).
The remaining compound of `Cc1ccc2nc(-c3ccc4nc(-c5ccc(NC(=O)c6cccc(Cl)c6)cc5)sc4c3)sc2c1S(=O)(=O)O` is reported as 100% (PBS with 50% acetonitrile; 48 h, pH 7.4, room temperature).
`CN(C(=O)Cc1ccc(Cl)c(Cl)c1)[C@@H]1CCCC[C@H]1N1CCCCC1` has an intrinsic clearance of 11 mL/min/g (human liver microsomes; 0.5 µM, with: NADPH).
The viability of `Cc1ccc(S(=O)(=O)Nc2cccc(C(=O)NC3CCN(c4ncnc5[nH]cnc45)CC3)c2)cc1Cl` is reported as 103% (A549-ACE2; 0.03048 µM).
For `CC1(C)CC[C@]2(C(=O)O)CC[C@]3(C)C(=CC[C@@H]4[C@@]5(C)CC[C@H](OC(=O)NCc6ccccc6)C(C)(C)[C@@H]5CC[C@]43C)[C@@H]2C1`, the AUC(0-inf) was 64.2 µM·h (C57BL/6 mice, plasma; intraperitoneal, 85 µmol/kg).
With `Fc1ccc(-c2ccc(Cn3ccnc3)cc2F)cc1` the Kd was 7.4 ± 0.8 µM (cyp121; binding).
With `[11CH3]Nc1ccc(C(=O)C2CCN(C3Cc4ccccc4CC3O)CC2)cc1` (single isomer, unassigned) the radioactivity uptake was 1.77 %ID/g (Sprague-Dawley rat, lung; intravenous, dose not given, 5 min).
`CC[C@H](C)[C@@H]1NC(=O)[C@@H]2CSSC[C@H](NC(=O)[C@H](CCCNC(=N)N)NC(=O)[C@@H]3CSSC[C@H](NC1=O)C(=O)N[C@@H]([C@@H](C)O)C(=O)N[C@@H](CCCNC(=N)N)C(=O)NCC(=O)N[C@@H](Cc1ccccc1)C(=O)N3)C(=O)N[C@@H](CC(C)C)C(=O)N[C@H]1CSSC[C@H](NC(=O)[C@H](C(C)C)NC(=O)CNC(=O)[C@H](CCCNC(=N)N)NC(=O)[C@H](CCCNC(=N)N)NC1=O)C(=O)N[C@@H](CCCNC(=N)N)C(=O)N2` — result for “highest non-toxic concentration”: greater than 100 µM (HeLa; MTT; 48 h, 37 °C, 10% FBS).
For `COc1ccc(S(=O)(=O)Nc2cccc(C(=O)NC3CCN(c4ncnc5[nH]cnc45)CC3)c2)cc1`, the viability was 107% (A549-ACE2; 0.823 µM).
`COCCN(CCOC)c1nc(C)nc2c(-c3c(OC)cc([76Br])cc3OC)c(C)nn12` gave a fold increase of roughly 2 fold (Corticotropin-releasing factor receptor 1 (Rattus norvegicus, UniProt P35353); ex vivo autoradiography; rat, prefrontal cortex; baseline: non-receptor region).
`Cc1ccc(OCCN(C)C)cc1C(=O)N[C@H](C)c1cc(-c2ccn(C)n2)nc2ccccc12` gave a viability of 0.6% and 1.8% (Vero E6 cells; 250 µM).
`NC[C@@H](NC[C@@H]1CCCN1C[C@@H](CO)NC[C@@H](NCCC12CC3CC(CC(C3)C1)C2)c1ccccc1)c1ccccc1` gave an IC50 of 12.3 µM (Escherichia coli; bacterial growth; compound alone).
With `COc1ccc(S(=O)(=O)N2CCCN(CC(=O)Nc3ccccc3OC)CC2)cc1` the IC50 was greater than 20 µM (Cytochrome P450 2D6 (CYP2D6, Homo sapiens, UniProt P10635); enzyme activity, inhibitor).
`C=C(C)[C@@H]1CC[C@]2(C(=O)NCC(=O)O)CC[C@]3(C)[C@H](CC[C@@H]4[C@@]5(C)CC[C@H](O)C(C)(C)[C@@H]5CC[C@]43C)[C@@H]12` has an aqueous solubility of 3 dilution steps (50 µL of 5 mg/mL DMSO solution).
For `C1c2c(-c3nnn[nH]3)n[nH]c2[C@@H]2C[C@H]12` (relative stereo), mechanical threshold read “no effect” (von Frey; wild-type mouse; subcutaneous, 10 mg/kg).
For `OCCC(c1ccc(-c2ccc(F)cc2)cc1)n1ccnc1` (stereo not drawn), the Kd was 14 ± 2 µM (cyp121; binding).
The solubility of `CC(C)[C@H](N)C(=O)N[C@@H](Cc1ccc(O)cc1)C(=O)N[C@@H](Cc1ccc(O)cc1)C(=O)N[C@@H](CCCNC(=N)N)C(=O)O` is reported as no less than 1000 µM (Lispro formulation; pH 7 to 7.8).
With `O=C(NC1CCCCC1)Oc1ccc(O)c(-c2ccccc2)c1` the remaining compound was 78 ± 2.5% (PBS; 1 µM, 24 h, pH 7.4, 37 °C).
The partition coefficient of `NCCNCCSc1ccccc1` is reported as 0.25 ± 0.01 (n-octanol/phosphate buffer; pH 7.4, average of 10, 25, 50 µg/mL).
The viability of `O=C(NC1CCN(c2ncnc3[nH]cnc23)CC1)c1cccc(NS(=O)(=O)c2ccc(Cl)cc2)c1` is reported as 98.1% (A549-ACE2; 0.823 µM).
For `C[C@@H](O)[C@@H]1NC(=O)[C@@H]2CSCSC[C@@H](C(=O)N[C@H](CC(=O)N[C@@H](CCCNC(=N)N)C(=O)O)Cc3ccc(O)cc3)NC(=O)[C@H](CCC(N)=O)NC(=O)[C@H](Cc3ccc(O)c(I)c3)NC(=O)[C@H](CCCNC(=N)N)NC(=O)[C@H](CSSC[C@H](NC(=O)CN)C(=O)N2)NC(=O)[C@H](CCCNC(=N)N)NC(=O)[C@@H]2CCCN2C(=O)[C@H](CC(=O)O)NC1=O`, inhibition read “no inhibition” (cytochrome P450 isoforms; enzyme activity, inhibitor; 10 µM).
Under “incidence of abnormal EEG”, `CC(C)C[C@@H](NC(=O)[C@H](NC(=O)[C@H]1CCCN1)[C@H](C)O)C(=O)N[C@H](Cc1c[nH]cn1)C(=O)N[C@@H](C(=O)N[C@H](Cc1c[nH]cn1)C(=O)N[C@H](CC(N)=O)C(=O)N[C@H](CCCNC(=N)N)C(=O)N[C@H](CCCNC(=N)N)C(=O)N[C@H](CCCNC(=N)N)C(=O)N[C@H](CCCNC(=N)N)C(=O)N[C@H](CCCNC(=N)N)C(N)=O)[C@H](C)O` is recorded as 16.7% (adverse events, phase I single ascending dose; healthy male subjects; 4 mg, grade 1).
`O=C(NC1CCN(c2ncnc3[nH]cnc23)CC1)c1cccc(S(=O)(=O)Nc2ccc(Cl)cc2)c1` has a viability of 100% (A549-ACE2; 7.407 µM).
The IC50 of `CC(C)c1ccc(NC(=O)C2CC3CCC2C3)cc1` (stereo not drawn) is reported as 12.2 µM (Cytochrome P450 1A2 (CYP1A2, Homo sapiens, UniProt P05177); enzyme activity, inhibitor).
`[2H]C1(C(=O)Nc2ccc3cc(C(=O)O)ccc3c2)CCN(S(=O)(=O)c2ccc(C)cc2C)CC1` has an intrinsic clearance of 7.2 µL/min/mg (human liver microsomes).

Repeated from above:
`Cc1ccc(OCCN(C)C)cc1C(=O)N[C@H](C)c1cc(-c2ccn(C)n2)nc2ccccc12` gave a viability of 0.6% and 1.8% (Vero E6 cells; 250 µM).
For `CC1(C)CC[C@]2(C(=O)O)CC[C@]3(C)C(=CC[C@@H]4[C@@]5(C)CC[C@H](OC(=O)NCc6ccccc6)C(C)(C)[C@@H]5CC[C@]43C)[C@@H]2C1`, the AUC(0-inf) was 64.2 µM·h (C57BL/6 mice, plasma; intraperitoneal, 85 µmol/kg).
With `COc1ccc(S(=O)(=O)N2CCCN(CC(=O)Nc3ccccc3OC)CC2)cc1` the IC50 was greater than 20 µM (Cytochrome P450 2D6 (CYP2D6, Homo sapiens, UniProt P10635); enzyme activity, inhibitor).
With `O=c1c(-c2c[nH]c3ccccc23)nccc2c1[nH]c1ccccc12` the EC50 was 0.0045 µM (Ahr (Rattus norvegicus, UniProt P41738); reporter gene, activator; rat H4L7.5c2; 6 h).
`COCCN(CCOC)c1nc(C)nc2c(-c3c(OC)cc([76Br])cc3OC)c(C)nn12` gave a fold increase of roughly 2 fold (Corticotropin-releasing factor receptor 1 (Rattus norvegicus, UniProt P35353); ex vivo autoradiography; rat, prefrontal cortex; baseline: non-receptor region).
